Results gathered from unrelated publications.
Each line is one published result; not all experiments were run side by side. “And” joins repeats or separate records; there may be more than shown. Numbers after ± are the reported error.
Urea transporter 1: Urea transporter 1 (Homo sapiens, UniProt Q13336)
UniProt Q13336, sequence (whole entry, looked up): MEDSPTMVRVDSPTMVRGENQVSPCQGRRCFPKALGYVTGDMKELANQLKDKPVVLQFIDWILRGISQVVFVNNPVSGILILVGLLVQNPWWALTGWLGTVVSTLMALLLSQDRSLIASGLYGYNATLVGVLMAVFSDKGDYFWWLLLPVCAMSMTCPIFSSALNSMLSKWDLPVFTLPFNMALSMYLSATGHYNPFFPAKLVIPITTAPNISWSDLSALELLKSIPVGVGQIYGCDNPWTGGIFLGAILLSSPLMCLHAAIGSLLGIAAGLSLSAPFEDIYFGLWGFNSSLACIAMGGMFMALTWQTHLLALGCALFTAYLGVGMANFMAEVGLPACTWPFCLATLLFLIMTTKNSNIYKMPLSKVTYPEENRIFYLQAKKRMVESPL
Glutamate receptor ionotropic, kainate 3: Glutamate receptor ionotropic, kainate 3 (Rattus norvegicus, UniProt P42264)
UniProt P42264, sequence (whole entry, looked up): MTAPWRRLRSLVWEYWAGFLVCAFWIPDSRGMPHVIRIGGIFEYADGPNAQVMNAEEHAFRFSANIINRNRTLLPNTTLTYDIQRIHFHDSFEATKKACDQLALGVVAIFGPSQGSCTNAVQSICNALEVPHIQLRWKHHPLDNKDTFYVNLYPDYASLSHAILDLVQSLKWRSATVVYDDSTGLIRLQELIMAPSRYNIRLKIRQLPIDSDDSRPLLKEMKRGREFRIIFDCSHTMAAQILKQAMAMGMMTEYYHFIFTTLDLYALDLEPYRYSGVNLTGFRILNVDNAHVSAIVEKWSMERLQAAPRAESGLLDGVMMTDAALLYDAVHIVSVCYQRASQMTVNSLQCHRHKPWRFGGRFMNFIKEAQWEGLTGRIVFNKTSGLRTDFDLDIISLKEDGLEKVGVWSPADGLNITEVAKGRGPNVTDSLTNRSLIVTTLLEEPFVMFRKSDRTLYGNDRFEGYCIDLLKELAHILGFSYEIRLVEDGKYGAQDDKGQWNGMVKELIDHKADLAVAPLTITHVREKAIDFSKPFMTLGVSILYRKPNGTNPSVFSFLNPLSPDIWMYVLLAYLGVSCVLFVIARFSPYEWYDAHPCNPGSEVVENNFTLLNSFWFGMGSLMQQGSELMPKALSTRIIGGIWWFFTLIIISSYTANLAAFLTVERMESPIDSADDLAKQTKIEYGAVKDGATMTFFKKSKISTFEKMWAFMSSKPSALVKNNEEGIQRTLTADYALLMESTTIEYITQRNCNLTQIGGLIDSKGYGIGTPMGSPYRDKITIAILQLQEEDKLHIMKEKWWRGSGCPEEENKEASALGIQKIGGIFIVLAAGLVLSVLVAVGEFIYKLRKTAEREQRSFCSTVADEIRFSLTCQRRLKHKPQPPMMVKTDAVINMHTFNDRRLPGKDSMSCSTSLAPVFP
Vesicular acetylcholine transporter: Vesicular acetylcholine transporter (Rattus norvegicus, UniProt Q62666)
UniProt Q62666, sequence (whole entry, looked up): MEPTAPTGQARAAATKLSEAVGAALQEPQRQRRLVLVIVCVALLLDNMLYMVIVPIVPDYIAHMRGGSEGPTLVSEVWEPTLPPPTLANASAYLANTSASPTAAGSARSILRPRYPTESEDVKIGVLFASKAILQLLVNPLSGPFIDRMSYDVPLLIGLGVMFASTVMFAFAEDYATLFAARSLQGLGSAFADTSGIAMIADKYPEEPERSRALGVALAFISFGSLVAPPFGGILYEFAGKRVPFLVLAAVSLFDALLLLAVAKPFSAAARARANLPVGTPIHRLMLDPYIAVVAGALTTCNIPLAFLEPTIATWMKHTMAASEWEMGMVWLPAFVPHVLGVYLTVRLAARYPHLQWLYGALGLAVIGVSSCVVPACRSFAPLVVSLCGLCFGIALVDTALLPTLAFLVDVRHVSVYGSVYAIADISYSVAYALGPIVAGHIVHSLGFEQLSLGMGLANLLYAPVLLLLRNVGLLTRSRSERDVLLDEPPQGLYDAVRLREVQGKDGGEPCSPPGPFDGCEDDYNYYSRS
fucose-binding lectin LecB: fucose-binding lectin LecB (Pseudomonas aeruginosa, UniProt A0A0H2ZE85)
DNA polymerase III PolC V741I: DNA polymerase III PolC (Clostridioides difficile, UniProt Q18BG8, V741I)
Gabrg2/Gabra6 α6+/γ2− interface: Gabrg2/Gabra6, α6+/γ2− interface (Rattus norvegicus, UniProt P18508+P30191)
UniProt P30191, sequence (whole entry, looked up): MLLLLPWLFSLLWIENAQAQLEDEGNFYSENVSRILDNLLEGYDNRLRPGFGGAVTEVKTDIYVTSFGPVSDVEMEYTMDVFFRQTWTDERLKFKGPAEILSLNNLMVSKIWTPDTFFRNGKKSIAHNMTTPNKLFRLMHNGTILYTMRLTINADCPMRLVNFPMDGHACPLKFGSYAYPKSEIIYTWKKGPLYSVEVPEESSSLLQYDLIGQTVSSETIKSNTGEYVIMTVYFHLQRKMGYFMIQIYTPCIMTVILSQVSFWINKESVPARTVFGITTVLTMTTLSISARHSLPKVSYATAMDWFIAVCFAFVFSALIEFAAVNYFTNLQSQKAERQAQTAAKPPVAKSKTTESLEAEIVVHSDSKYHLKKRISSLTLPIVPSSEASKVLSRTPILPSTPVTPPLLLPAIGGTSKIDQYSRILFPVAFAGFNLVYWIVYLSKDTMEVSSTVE
UniProt P18508, sequence (whole entry, looked up): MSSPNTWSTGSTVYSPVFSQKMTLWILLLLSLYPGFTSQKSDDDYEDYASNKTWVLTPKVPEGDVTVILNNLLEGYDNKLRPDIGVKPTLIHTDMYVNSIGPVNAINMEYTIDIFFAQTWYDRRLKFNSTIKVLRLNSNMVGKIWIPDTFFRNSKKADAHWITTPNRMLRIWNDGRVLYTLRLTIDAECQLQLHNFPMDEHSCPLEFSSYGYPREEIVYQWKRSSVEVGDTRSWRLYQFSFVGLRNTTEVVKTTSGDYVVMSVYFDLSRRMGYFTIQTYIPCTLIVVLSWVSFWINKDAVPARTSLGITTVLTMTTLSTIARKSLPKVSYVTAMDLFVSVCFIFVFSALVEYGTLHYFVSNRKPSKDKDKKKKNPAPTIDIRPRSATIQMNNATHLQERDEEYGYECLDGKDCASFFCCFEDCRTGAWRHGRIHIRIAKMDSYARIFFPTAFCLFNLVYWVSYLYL
UniProt Q9NWT6, sequence (whole entry, unmodified, looked up): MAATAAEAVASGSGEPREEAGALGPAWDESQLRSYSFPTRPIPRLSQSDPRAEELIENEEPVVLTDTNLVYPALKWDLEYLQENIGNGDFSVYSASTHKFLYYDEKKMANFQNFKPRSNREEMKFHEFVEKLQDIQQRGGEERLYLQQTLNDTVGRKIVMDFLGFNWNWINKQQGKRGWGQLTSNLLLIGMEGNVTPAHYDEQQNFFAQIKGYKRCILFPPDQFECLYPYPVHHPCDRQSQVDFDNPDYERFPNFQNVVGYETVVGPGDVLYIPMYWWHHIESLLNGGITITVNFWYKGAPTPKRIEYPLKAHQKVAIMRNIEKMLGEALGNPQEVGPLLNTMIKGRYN
UniProt Q01469, sequence (whole entry, looked up): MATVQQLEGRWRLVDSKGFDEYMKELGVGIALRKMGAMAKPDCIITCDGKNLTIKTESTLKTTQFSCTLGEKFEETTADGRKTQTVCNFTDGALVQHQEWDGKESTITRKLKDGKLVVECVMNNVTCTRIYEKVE
UniProt P10636, sequence (whole entry, looked up): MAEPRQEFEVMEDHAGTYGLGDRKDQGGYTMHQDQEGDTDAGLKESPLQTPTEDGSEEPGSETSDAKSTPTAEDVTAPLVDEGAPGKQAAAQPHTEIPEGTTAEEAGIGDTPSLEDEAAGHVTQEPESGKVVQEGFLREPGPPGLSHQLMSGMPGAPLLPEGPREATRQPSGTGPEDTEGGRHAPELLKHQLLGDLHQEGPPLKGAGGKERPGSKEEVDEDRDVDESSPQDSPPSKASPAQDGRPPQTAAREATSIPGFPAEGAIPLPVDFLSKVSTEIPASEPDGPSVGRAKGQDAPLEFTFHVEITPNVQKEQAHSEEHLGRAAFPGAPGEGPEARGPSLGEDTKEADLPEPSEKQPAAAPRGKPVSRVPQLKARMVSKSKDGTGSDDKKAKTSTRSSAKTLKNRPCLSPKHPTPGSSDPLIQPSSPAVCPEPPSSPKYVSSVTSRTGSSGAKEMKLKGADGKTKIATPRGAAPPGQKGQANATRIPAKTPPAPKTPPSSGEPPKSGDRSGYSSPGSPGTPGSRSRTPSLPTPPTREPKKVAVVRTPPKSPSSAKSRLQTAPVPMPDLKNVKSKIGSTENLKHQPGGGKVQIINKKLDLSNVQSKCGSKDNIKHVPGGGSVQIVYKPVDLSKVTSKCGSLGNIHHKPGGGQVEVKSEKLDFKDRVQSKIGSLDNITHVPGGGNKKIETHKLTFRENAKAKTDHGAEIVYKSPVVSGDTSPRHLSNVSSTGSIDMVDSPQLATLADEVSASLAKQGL
UniProt P35348, sequence (whole entry, looked up): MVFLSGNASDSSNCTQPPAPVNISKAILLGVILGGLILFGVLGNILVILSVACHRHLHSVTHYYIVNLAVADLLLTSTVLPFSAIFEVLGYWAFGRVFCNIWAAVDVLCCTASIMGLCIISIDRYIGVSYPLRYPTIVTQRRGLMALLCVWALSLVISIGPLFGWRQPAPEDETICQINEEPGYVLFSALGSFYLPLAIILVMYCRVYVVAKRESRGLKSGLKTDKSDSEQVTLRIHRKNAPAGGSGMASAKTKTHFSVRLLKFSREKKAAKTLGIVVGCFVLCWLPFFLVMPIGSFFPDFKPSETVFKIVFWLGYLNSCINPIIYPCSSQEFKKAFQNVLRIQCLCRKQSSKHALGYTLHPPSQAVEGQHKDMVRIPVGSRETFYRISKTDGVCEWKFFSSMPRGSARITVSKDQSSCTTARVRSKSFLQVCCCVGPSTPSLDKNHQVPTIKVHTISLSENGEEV
UniProt P05181, sequence (whole entry, looked up): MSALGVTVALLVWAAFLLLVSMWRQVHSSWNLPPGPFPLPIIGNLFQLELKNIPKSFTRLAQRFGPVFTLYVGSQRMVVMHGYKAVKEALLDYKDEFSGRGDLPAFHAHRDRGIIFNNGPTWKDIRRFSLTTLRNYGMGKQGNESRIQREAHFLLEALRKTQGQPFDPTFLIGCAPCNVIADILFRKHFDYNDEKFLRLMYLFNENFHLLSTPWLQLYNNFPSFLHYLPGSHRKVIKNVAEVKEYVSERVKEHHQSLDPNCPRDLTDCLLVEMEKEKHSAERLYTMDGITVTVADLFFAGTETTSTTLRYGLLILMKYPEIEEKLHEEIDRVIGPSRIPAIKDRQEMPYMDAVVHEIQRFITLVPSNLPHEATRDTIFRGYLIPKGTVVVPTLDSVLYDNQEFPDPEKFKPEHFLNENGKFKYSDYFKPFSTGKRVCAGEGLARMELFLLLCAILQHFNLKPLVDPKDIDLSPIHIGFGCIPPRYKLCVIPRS

SMILES | target | assay | system | conditions | Ki
CC(=N)S | Urea transporter 1 | urea transport inhibition | – | added: thiourea | 7000 µM
OCC1CCN(c2ccc(-c3cc4cc(O)ccc4[nH]3)c(F)n2)CC1 | Microtubule-associated protein tau, AD brain aggregates (MAPT, Homo sapiens, UniProt P10636) | – | Alzheimer's disease brain homogenate | added: [3H]asyn-44 | > 10 µM
NC(CC1(C(=O)O)CC2OC(CO)C(O)C(O)C2O1)C(=O)O (stereo not drawn) | Glutamate receptor ionotropic, kainate 3 | binding, [3H]kainate displacement | HEK293T/17 membranes | added: [3H]kainate | > 10 µM
Cc1ccc2c(c1)C=CC21CCN(C2Cc3ccccc3CC2O)CC1 (racemic) | Vesicular acetylcholine transporter | binding, radioligand displacement | PC12 expressing VAChT | added: [3H]vesamicol | 0.0087 ± 0.0001 µM
C=CC(N)=O | Urea transporter 1 | urea transport inhibition | – | added: thiourea | 100000 µM
CC1=Cc2ccccc2C12CCN(C1Cc3ccccc3CC1O)CC2 (racemic) | Vesicular acetylcholine transporter | radioligand binding | PC12 expressing VAChT | added: [3H]vesamicol | 0.023 ± 0.001 µM
CC(C)C[C@H](NC(=O)CNC(=O)[C@H](C)NC(=O)c1ccc(S(=O)(=O)NC[C@H]2O[C@@H](C)[C@@H](O)[C@@H](O)[C@@H]2O)cc1)C(=O)N[C@@H](C)C(=O)N[C@H]1CCN(c2cc3c(cc2F)c(=O)c(C(=O)O)cn3C2CC2)C1 | fucose-binding lectin LecB | binding, competitive fluorescence polarization | – | – | 0.27 ± 0.06 µM
N[C@@H](Cc1cc(I)c(O)c(I)c1)C(=O)O | Cytochrome P450 2E1 (CYP2E1, Homo sapiens, UniProt P05181) | p-nitrophenol hydroxylation, inhibitor | baculosomes | 10 min, with additive 100 µM | 4.9 µM
CC(C)[C@H](N)C(=O)OCCCCCn1cnc2nc(NCc3ccc(Cl)c(Cl)c3)[nH]c(=O)c21 | DNA polymerase III PolC V741I | enzyme activity, inhibitor | – | truncated, dGTP omitted, 4% DMSO | 1.57 µM
NC(=O)c1ccc[n+]([C@@H]2O[C@H](COP(=O)(O)OP(=O)(O)OC[C@H]3O[C@@H](n4cnc5c(N)ncnc54)[C@H](OP(=O)(O)O)[C@@H]3O)[C@@H](O)[C@H]2O)c1 | chnB (Rhodococcus sp. HI-31, UniProt C0STX7, F507Y) | – | – | – | 192 µM
CC(C)C[C@H](NC(=O)CNC(=O)[C@H](C)NC(=O)c1ccc(S(=O)(=O)NC[C@H]2O[C@@H](C)[C@@H](O)[C@@H](O)[C@@H]2O)cc1)C(=O)N[C@@H](C)C(=O)NC[C@@H]1CCN(c2cc3c(cc2F)c(=O)c(C(=O)O)cn3C2CC2)C1 | fucose-binding lectin LecB | binding, competitive fluorescence polarization | – | – | 0.29 ± 0.05 µM
COc1ccccc1-n1nc2c3cc(Cl)ccc3[nH]cc-2c1=O | Gabrg2/Gabra6 α6+/γ2− interface | – | rat cerebellar membranes | added: [3H]Ro15-4513, diazepam 50 mM | 0.329 ± 0.076 µM
COc1cc2c(cc1OC)CN(CCc1ccc(NC(=O)c3cccc4c(=O)c5cccc(OC)c5[nH]c34)cc1)CC2 | SLC6A4 (Homo sapiens, UniProt P31645) | binding | – | – | 0.14 µM
O=C1CCc2cc(-c3cccc(OC(=O)[C@H]4[C@H](c5ccccc5)[C@@H](C(=O)O)[C@H]4c4ccccc4)c3)ccc2N1 | FABP5 (Homo sapiens, UniProt Q01469) | binding | – | – | 7.59 ± 1.11 µM
NC(=S)Nc1ccccc1 | Urea transporter 1 | urea transport inhibition | – | added: thiourea | 400 µM
CC[C@H]1OC(=O)[C@H](C)[C@@H](O[C@H]2C[C@@](C)(OC)[C@@H](O)[C@H](C)O2)[C@H](C)[C@@H](O[C@@H]2O[C@H](C)C[C@H](N(C)C)[C@H]2O)[C@](C)(O)C[C@@H](C)C(=O)[C@H](C)[C@@H](O)[C@]1(C)O | uncharacterized protein (Saccharopolyspora erythraea, UniProt A4F7P9) | inhibitor | – | pH 7.6, 20 °C, added: p-nitrophenyl-β-D-glucopyranoside | 124 ± 130 µM
COc1cccc(-n2nc3c4cc(Cl)ccc4[nH]cc-3c2=O)c1 | Gabrg2/Gabra6 α6+/γ2− interface | – | rat cerebellar membranes | added: [3H]Ro15-4513, diazepam 50 mM | 0.0154 ± 0.0002 µM
OC1Cc2ccccc2CC1N1CCC2(C=Cc3ccc(F)cc32)CC1 (racemic) | Vesicular acetylcholine transporter | radioligand binding | PC12 expressing VAChT | added: [3H]vesamicol | 0.006 ± 0.0004 µM
COCC1OC2CC(CC(N)C(=O)O)(C(=O)O)OC2C(O)C1O (stereo not drawn) | Glutamate receptor ionotropic, kainate 3 | binding, [3H]kainate displacement | HEK293T/17 membranes | added: [3H]kainate | 14.5 µM
O=C(O)CCC(=O)C(=O)O | HIF1AN (Homo sapiens, UniProt Q9NWT6, Y93A) | cosubstrate | – | pH 7.00, 37.0 °C, mutant Y93A, added: CTAD peptide 100 µM | 350 µM and ~300 µM
CN[C@H]1[C@H]2O[C@@](C[C@H](N)C(=O)O)(C(=O)O)C[C@H]2OC[C@H]1O | Glutamate receptor ionotropic, kainate 3 | ligand | – | – | 0.0054 µM
CCOCCn1cnc2nc(NCc3ccc(Cl)c(Cl)c3)[nH]c(=O)c21 | DNA polymerase III PolC V741I | enzyme activity, inhibitor | – | truncated, dGTP omitted, 4% DMSO | 1.22 µM
NC(=O)CF | Urea transporter 1 | urea transport inhibition | – | added: thiourea | 15000 µM
Cn1cnc2nc(NCc3ccc(Cl)c(Cl)c3)[nH]c(=O)c21 | DNA polymerase III PolC V741I | enzyme activity, inhibitor | – | truncated, dGTP omitted, 4% DMSO | 0.89 µM
COc1cc2c(cc1OC)-c1c(OC)c(OC)cc3c1[C@H](C2)N(C)CC3 (racemic) | ADRA1A (Homo sapiens, UniProt P35348) | binding | – | secondary | 1.32 µM
Cc1ccc(Nc2cc(O)nc(O)n2)cc1Cl | DNA polymerase III PolC V741I | enzyme activity, inhibitor | – | truncated, dGTP omitted, 4% DMSO | 6.2 µM
C=CC(=O)OCCCC | uncharacterized protein (Bradysia odoriphaga, UniProt A0A2S0X9G4) | binding, competitive fluorescence displacement | – | – | > 50 µM

Repeated from above:
SMILES | target | assay | system | conditions | Ki
COc1cc2c(cc1OC)-c1c(OC)c(OC)cc3c1[C@H](C2)N(C)CC3 (racemic) | ADRA1A (Homo sapiens, UniProt P35348) | binding | – | secondary | 1.32 µM
Cc1ccc(Nc2cc(O)nc(O)n2)cc1Cl | DNA polymerase III PolC V741I | enzyme activity, inhibitor | – | truncated, dGTP omitted, 4% DMSO | 6.2 µM
C=CC(=O)OCCCC | uncharacterized protein (Bradysia odoriphaga, UniProt A0A2S0X9G4) | binding, competitive fluorescence displacement | – | – | > 50 µM
